Measured values pooled from the literature.
Numbered parts are unrelated; each lists some results of a single study.

Block 1 — method: universal PBM; molecule type: double-stranded DNA, one strand shown; medium: in vitro; concentration: 600 nM; reading: higher = stronger binding
Target: Sal-like protein 4, full length isoform A (SALL4, Homo sapiens, UniProt Q9UJQ4, residues 1-1053)
Sequence of UniProt Q9UJQ4 (whole entry, looked up): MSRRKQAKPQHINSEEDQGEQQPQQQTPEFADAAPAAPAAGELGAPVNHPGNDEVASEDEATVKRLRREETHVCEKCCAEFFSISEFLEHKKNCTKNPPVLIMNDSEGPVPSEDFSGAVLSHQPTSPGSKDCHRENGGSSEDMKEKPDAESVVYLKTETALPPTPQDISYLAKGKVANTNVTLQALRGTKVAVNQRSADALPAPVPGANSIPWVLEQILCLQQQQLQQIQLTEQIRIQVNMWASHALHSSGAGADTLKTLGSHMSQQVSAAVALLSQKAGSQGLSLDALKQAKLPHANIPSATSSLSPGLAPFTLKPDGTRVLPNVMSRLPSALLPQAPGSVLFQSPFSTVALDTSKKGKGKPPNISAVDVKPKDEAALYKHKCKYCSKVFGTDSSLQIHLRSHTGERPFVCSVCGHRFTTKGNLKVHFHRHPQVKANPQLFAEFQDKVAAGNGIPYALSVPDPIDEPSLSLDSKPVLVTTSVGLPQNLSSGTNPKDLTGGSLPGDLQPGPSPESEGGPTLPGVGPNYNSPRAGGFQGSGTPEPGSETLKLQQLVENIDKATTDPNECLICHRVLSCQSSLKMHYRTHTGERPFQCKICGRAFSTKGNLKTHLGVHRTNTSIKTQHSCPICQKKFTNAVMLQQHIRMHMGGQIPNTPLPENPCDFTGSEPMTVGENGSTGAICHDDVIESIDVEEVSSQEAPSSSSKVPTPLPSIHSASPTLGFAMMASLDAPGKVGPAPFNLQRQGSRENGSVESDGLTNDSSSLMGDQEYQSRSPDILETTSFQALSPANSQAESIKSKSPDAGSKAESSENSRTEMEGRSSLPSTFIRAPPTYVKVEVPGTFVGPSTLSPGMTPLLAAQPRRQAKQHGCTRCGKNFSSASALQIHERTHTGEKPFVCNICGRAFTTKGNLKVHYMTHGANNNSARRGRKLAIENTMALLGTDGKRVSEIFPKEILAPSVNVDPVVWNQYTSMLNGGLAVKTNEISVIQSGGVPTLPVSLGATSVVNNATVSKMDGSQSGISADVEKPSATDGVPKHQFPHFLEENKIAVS
Setting: 8-mer, flanks averaged, mean of replicates
`ACGTGGTC` has an E-score of -0.255.
`ACCCAGAC` has an E-score of -0.187.
`GGAAACGA` gave an E-score of 0.0699.
For `ACAGCGCA`, the E-score was -0.182.
For `CTGGGGGA`, the E-score was -0.228.
The E-score of `GTCGTGTA` is reported as 0.0447.
With `CGTGCTGA` the E-score was -0.0133.
`GTGCCTGA` has an E-score of -0.208.
With `CACACAAA` the E-score was 0.0918.
The E-score of `AGGGTTGA` is reported as -0.0725.
`AACCTACG` gave an E-score of -0.0302.
The E-score of `AAAAGTAG` is reported as 0.202.
`ACCCGCGA` gave an E-score of -0.208.
For `ATGTGTAG`, the E-score was 0.133.
The E-score of `AAGACTGG` is reported as -0.00764.
With `CCGGCCTA` the E-score was -0.135.
The E-score of `CGGCGTTC` is reported as -0.373.
The E-score of `ATAGCCCC` is reported as -0.275.
`GTATGTGA` has an E-score of 0.201.
The E-score of `CACTCTGC` is reported as -0.112.

Block 2 — method: RNA Bind-n-Seq; molecule type: RNA; medium: in vitro; concentration: not given; relative to: input RNA pool; reading: higher = stronger binding
Target: RING finger protein unkempt homolog, zinc fingers 1-6, GST-SBP tag (UNK, Homo sapiens, UniProt Q9C0B0, residues 30-357)
Sequence of UniProt Q9C0B0 (30-357, looked up): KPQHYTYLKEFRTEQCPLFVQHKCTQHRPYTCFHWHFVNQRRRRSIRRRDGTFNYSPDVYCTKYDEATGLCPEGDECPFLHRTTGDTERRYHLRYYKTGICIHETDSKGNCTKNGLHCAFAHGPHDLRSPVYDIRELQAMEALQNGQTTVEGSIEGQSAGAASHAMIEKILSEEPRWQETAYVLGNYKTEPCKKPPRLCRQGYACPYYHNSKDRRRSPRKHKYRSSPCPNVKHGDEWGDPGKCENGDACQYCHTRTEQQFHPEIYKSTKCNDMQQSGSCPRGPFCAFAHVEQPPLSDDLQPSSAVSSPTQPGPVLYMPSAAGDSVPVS
Setting: RNA with constant flanks, human and mouse sites, ends assumed
Constant ends, left off below: GGGAGUUCUACAGUCCGACGAUC … CAACAGAGGAUUGAGCAUCA
`UUUUCUGCAUCAAAAGACCACCGUCAAGAAGUCACAGUAAUAGAGUUCCAAGAGGCUAUUUUGGCUUGUAAAACCCCAAAGAAGACUACCUCCUCCAGACUGGAGUGGAAGAAGGUGGGA` gave a bound/input enrichment of 0.616 ratio.
`UUGUUUACUGUAAGUUUGAAAAUAAAAAUGAAGAAAAAAAUUCCAAUGACUGUGCUGUGGUUGGAGACUUUAUUUACCAAGAUGUUUACUCUUCCUUUCCCCUUCCAUUUUGAGGAGCUG` gave a bound/input enrichment of 0.171 ratio.
For `UACAGCUUGCCUUUUUAAUGUUAGUCACAAUGUUUUUGUGGUUUGAAGUUUAGUUUAAUGUUAGUGCAGUGACAGGAAAUACACAUUAUGCUGAUGUUGAUGACAGAAUUUAUUUGGUUG`, the bound/input enrichment was 1.52 ratio.
With `CCUAGUCAUCCCCUUGAAUUAUCAGAAAAAAAUUUCCAGCUCAACCAAGAUAAAAUGAAUUUUUCCACACUGAGAAACAUUCAGGGUCUAUUUGCUCCGCUAAAAUUACAGAUGGAAUUC` the bound/input enrichment was 0.821 ratio.
With `UUUUUGCACCUGAAAAAGGCAGCCAUAGUUUUCCAGAAGCAACUCAGAGGUCAGAUUGCUCGGAGAGUUUACAGACAAUUGCUGGCAGAGAAAAGGGAGCAAGAAGAAAAGAAGAAACAG` the bound/input enrichment was 0.248 ratio.
`GAAGAUGAGAAAUACCUGCAGACAAUAAUGGAUGCUAAUGCACAGUCACAUAAACUUACUAUCUUUGAUGCCAGACAAAACAGCGUUGCUGAUACCAACAAGGCAAAGGGUGGUGGAUAU` gave a bound/input enrichment of 0.314 ratio.
`GUGUCCUGGUCCCAGUUCAACAGGGAGAAUUUACCAGGACGGAAUUACACUUUCUGGCAAUGGUUUGACGGUGUGAUGGAAGUGUUAAAAAAACAUCUCAAGCCUCAUUGGAAUGAUGGG` gave a bound/input enrichment of 0.271 ratio.
`AUUAUUUUUAAUGAAAUGCCAAUAUAAUUUUUUAAGAAAGCAGUAAAUUCUCAUCAUGAUCAUAGGCAGUUGAAAACUUUUUACUCAUUUUUUUCAUGUUUUACAUGAAAAUAAUGCUUU` has a bound/input enrichment of 0.253 ratio.

Block 3 — method: RNA Bind-n-Seq; molecule type: RNA; medium: in vitro; concentration: 365 nM; relative to: no-protein control; reading: higher = stronger binding
Target: RNA binding protein fox-1 homolog 2, RRM domain, GST-SBP tag (RBFOX2, Homo sapiens, UniProt O43251-10, residues 100-194)
Setting: natural RNA segment, single round, ends assumed
Constant ends, left off below: GGGAGUUCUACAGUCCGACGAUC … UGGAAUUCUCGGGUGCCAA
Construct (chain): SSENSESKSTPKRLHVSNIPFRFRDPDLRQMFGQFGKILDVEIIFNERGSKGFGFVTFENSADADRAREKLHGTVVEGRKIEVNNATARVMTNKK
`GAUCAGCUGCCUGUGGUUGGGACAGGGCACACCACCUUCCCUCAGACGGUCUUGCUAAGUAUAUGACUGGGAGAGUUUGGUCAUUUUUGUGUACCCUAUGGUGGGAAUGU`: “RBNS enrichment (R)” 1.28.
For `CAGUUACAUAGGUAGCAAGGGUUUAUUUUUACUUGGGCAAAUUUCAGUGAUAGGCAUUGAGAUCAUGCAUUCGACCAUUUGUCCUGUUCUAAUUAUGAAGAGCGUACCAG`, “RBNS enrichment (R)” read 0.419.
`GGAUAGGAGUGGCUCCAUCUAUCCUUGUGGUGAAAGAGUCCAGGAGCUCCUUUAGAGAUUGUCAAGUCCUGAGCGAUGAGCUGCCCUUAAUCCUCAGAAGCCUUACAAAA` — result for “RBNS enrichment (R)”: 0.314.
For `CAAGUGAAAAAGAAACACUGAGGUUUUAAGCUGCUGUAUAUAGCUUGUGAGAAACCUCUUUUCUUUAAAAUUUACAUAAUCACAAGAAAGGAAAGAAUUACAGUUGGACU`, “RBNS enrichment (R)” read 0.405.
`UUGUGUGAAAAUGUGACAAACACACUUAUCUGUCUCUUCUACAAUUGUGGUUUAUUGAAUGUGAUUUUUCUGCACUAAUAUAAAUUAGACUAAGUGUUUUCAAAUAAAUC`: “RBNS enrichment (R)” 1.05.
`AGCCUGGCCCAGCUCCCCCGGGAGGGGCCCGCUUGCCUCGGCUCCUGCUGCACCAACCCAGCCGCUGCCCGGCGCCCUCUGUCCUGACUUCAGGGGCUGCCCGCUCCCAG`: “RBNS enrichment (R)” 0.552.
Under “RBNS enrichment (R)”, `UCUAAAAAAAUUAAAAAAUAACAGAGCAUUGACUCCAGUAGAUUAGAGUUUAAGUGUUUGCUCUUUCCCCGAAGUCUUUAAAGGACCUUGAAGCAGGUCACCAUGCUUGC` is recorded as 0.392.
Under “RBNS enrichment (R)”, `UGCCCUGUGGUGUUUGGCACGAGGCUCCCAGCCACUUAAACCUGUUCACUUUCCAAAGAAUUCAUCUUCCAGCCAGUCCCGUUGUGUCCUUGCUUGUCUGCAUUUAUUAG` is recorded as 1.07.

Block 4 — method: protein binding microarray; molecule type: double-stranded DNA, one strand shown; medium: in vitro; concentration: not given; relative to: not given; reading: higher = stronger binding
Target: Histone acetyltransferase KAT6A, winged helix 1, GST fusion (KAT6A, Homo sapiens, UniProt Q92794, residues 1-85)
Setting: 8-mer, flanks averaged, mean of 2 arrays, mostly near background
Construct (chain): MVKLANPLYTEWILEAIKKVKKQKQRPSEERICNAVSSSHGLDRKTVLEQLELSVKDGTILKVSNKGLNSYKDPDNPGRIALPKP
`AAGATAGA` has an E-score of -0.0949.
For `AAGGCCGG`, the E-score was 0.306.
The E-score of `GGTAACAC` is reported as 0.0096.
`CAGAGCTC` has an E-score of -0.0302.
For `ACGCGTAC`, the E-score was 0.364.
With `CTAACCAG` the E-score was -0.295.
For `CACCCAAG`, the E-score was -0.0265.
For `CAACTAAC`, the E-score was -0.0119.
The E-score of `AGATGAAG` is reported as -0.203.
The E-score of `ATGCAAGA` is reported as -0.217.
With `CCCCGGGG` the E-score was 0.374.
With `CGCATGCA` the E-score was 0.212.
`AAGACCCA` gave an E-score of -0.148.
The E-score of `CACAGCGC` is reported as 0.284.
The E-score of `GGGTGAGA` is reported as -0.11.
`ATACCTCC` has an E-score of -0.0777.
`ACCATAGC` gave an E-score of -0.0715.
`GGTCTTTA` has an E-score of -0.000355.
The E-score of `CCTCCACA` is reported as -0.238.
The E-score of `AATGCAAT` is reported as -0.121.
`ACCCGAGG` has an E-score of 0.0178.
For `AATAGAAC`, the E-score was -0.154.
`AACCATGG` has an E-score of -0.000875.
The E-score of `GCCTGTGA` is reported as -0.141.
For `AGGAGACT`, the E-score was -0.2.
